Experimental data gathered from unrelated publications.
A part holds a random share of what one study measured. pIC50: −log10 of the molar value.
Chain of UniProt P20309 (whole entry, looked up): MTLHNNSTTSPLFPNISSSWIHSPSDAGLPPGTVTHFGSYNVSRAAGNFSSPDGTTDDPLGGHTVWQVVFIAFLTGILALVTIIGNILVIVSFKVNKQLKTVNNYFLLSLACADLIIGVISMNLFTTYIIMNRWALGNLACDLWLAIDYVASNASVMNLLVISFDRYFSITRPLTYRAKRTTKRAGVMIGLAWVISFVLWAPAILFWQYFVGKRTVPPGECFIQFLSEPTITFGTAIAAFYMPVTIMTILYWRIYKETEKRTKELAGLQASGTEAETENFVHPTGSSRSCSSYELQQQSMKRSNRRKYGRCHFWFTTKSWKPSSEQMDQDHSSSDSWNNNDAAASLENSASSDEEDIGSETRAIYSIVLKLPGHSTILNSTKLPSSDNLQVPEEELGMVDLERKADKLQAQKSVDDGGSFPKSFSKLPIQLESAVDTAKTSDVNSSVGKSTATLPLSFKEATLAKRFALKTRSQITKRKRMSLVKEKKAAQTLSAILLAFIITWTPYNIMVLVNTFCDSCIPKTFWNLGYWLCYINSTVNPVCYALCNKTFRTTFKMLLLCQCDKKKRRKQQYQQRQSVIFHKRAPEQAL
Chain of UniProt P11229 (whole entry, looked up): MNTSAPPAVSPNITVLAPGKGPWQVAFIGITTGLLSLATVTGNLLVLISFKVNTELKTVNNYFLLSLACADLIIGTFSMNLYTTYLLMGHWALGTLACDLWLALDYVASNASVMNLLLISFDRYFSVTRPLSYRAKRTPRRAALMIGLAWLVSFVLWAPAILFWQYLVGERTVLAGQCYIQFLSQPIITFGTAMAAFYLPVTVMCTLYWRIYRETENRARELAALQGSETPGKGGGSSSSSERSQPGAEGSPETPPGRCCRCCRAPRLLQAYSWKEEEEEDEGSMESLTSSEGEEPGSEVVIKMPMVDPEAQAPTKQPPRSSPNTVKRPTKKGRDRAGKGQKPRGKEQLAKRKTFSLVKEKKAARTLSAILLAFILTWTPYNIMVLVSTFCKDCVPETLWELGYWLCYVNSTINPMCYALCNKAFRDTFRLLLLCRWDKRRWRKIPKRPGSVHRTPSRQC
Chain of UniProt P41145 (whole entry, looked up): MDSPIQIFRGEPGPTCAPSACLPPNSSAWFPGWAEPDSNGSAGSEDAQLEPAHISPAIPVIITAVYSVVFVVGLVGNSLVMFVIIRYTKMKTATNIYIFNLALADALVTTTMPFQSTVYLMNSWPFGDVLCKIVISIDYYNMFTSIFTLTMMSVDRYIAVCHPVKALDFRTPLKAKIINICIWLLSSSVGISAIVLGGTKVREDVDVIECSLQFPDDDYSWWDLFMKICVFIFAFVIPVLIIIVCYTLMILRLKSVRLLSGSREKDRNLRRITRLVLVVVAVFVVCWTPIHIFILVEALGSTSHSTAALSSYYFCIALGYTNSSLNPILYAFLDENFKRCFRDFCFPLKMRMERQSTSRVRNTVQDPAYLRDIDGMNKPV
Chain of UniProt Q01959 (whole entry, looked up): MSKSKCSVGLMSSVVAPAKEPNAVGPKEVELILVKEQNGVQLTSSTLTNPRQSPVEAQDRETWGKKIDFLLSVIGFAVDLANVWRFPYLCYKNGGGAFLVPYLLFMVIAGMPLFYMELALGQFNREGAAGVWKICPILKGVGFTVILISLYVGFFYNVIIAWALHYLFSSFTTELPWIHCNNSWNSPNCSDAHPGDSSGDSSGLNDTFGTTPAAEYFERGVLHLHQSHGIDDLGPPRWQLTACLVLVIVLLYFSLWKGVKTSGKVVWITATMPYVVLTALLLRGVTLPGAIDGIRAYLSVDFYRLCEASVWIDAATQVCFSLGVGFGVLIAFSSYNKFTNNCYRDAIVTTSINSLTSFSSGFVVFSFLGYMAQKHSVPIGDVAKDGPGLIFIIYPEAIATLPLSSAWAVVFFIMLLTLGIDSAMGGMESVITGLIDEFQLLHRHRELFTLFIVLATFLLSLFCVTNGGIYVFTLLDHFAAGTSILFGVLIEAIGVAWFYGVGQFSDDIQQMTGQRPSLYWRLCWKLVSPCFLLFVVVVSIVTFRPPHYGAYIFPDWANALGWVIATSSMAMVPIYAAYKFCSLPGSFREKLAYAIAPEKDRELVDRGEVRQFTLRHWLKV
Chain of UniProt P23975 (whole entry, looked up): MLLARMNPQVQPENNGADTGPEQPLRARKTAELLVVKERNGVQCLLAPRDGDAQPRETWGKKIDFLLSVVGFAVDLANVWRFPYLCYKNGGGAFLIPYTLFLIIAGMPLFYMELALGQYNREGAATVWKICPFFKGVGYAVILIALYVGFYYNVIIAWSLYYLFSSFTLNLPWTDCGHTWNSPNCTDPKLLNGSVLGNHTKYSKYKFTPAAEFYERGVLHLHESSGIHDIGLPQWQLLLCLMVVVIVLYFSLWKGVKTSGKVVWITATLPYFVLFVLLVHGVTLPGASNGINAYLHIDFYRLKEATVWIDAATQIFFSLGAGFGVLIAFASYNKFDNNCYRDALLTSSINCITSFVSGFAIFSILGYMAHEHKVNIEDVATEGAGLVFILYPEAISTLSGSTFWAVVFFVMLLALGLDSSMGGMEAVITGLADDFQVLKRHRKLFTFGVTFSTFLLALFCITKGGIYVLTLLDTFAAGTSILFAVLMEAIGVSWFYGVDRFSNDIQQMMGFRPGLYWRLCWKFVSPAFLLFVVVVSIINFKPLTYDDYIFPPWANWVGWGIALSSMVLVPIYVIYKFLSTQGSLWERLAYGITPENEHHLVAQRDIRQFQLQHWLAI

Set 1
Compound: CCS(=O)(=O)c1cc2cc(C[C@](O)(CC(C)(C)c3ccc(F)cc3C(N)=O)C(F)(F)F)[nH]c2cn1
Tested at: 10 µM
| target | assay | inhibition |
| --- | --- | --- |
| CHRM3 (Homo sapiens, UniProt P20309) | ligand displacement | -21.7% |
| SLC6A2 (Homo sapiens, UniProt P23975) | cell-free assay | -20.6% |
| OPRK1 (Homo sapiens, UniProt P41145) | ligand displacement | 23.4% |
| SLC6A3 (Homo sapiens, UniProt Q01959) | cell-free assay | -8.67% |
| CHRM1 (Homo sapiens, UniProt P11229) | ligand displacement | -22.7% |

Other studies, line by line
ADRB1: Beta-1 adrenergic receptor (ADRB1, Homo sapiens, UniProt P08588)
Chain of UniProt P08588 (whole entry, looked up): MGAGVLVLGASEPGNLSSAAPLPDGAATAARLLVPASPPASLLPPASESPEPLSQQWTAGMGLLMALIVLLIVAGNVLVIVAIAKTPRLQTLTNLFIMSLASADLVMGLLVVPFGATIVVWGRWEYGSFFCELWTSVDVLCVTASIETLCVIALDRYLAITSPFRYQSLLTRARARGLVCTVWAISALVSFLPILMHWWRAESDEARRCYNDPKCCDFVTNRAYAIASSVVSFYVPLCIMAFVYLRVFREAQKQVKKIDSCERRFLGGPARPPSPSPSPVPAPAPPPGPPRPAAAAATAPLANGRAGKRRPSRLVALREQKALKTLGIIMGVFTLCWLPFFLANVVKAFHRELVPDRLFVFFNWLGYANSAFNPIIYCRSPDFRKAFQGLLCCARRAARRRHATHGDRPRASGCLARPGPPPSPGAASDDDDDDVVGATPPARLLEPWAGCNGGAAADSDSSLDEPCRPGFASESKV
CAMK2A: Calcium/calmodulin-dependent protein kinase type II subunit alpha (CAMK2A, Homo sapiens, UniProt Q9UQM7)
Chain of UniProt Q9UQM7 (whole entry, looked up): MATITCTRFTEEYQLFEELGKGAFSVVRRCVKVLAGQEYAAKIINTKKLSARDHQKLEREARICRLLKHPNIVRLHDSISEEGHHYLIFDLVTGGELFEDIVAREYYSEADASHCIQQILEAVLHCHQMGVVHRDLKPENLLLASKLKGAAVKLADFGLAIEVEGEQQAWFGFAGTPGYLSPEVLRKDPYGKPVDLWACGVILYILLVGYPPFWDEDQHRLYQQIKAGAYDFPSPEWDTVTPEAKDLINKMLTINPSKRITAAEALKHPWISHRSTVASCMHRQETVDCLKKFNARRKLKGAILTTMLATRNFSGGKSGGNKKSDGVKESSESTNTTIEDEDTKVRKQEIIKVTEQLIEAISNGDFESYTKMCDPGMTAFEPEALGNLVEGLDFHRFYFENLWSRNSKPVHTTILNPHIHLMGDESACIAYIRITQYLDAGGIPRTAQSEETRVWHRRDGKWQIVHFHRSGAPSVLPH
| SMILES | tested on | assay | conditions | how to read | endpoint | value |
| --- | --- | --- | --- | --- | --- | --- |
| O=C(O)c1ccc2[nH]cc(CCCCN3CC=C(c4ccccc4)CC3)c2c1 | ADRB1 | antagonist | – | – | pIC50 | ≤ 4.00 |
| CN1CCCC(=C(c2cccs2)c2cccs2)C1 | CAMK2A | enzyme activity, inhibitor | 10 µM | – | inhibition | 2% |
| CN(C)C(=O)Oc1ccc[n+](C)c1.[Br-] | Sarcocystis neurona | parasite growth | 10 µM, second screen | relative to: untreated | log2 fold change | 0.00201 |
| C=C1[C@@H]2CC[C@H]3[C@]4(C)C[C@H](O[C@@H]5O[C@H](CO)[C@@H](OS(=O)(=O)O)[C@H](OS(=O)(=O)O)[C@H]5OC(=O)CC(C)C)CC(C(=O)O)(C(=O)O)[C@H]4CC[C@]3(C2)[C@H]1O | CAMK2A | enzyme activity, inhibitor | 10 µM | – | inhibition | -7% |
| COc1cc(CCN)ccc1O | ADRB1 | antagonist | – | – | pIC50 | ≤ 4.00 |

Excerpt of the above (set 1):
| target | assay | inhibition |
| --- | --- | --- |
| SLC6A2 (Homo sapiens, UniProt P23975) | cell-free assay | -20.6% |
